Results of several laboratories.
Compare with care: the assays were run in different laboratories. “And” joins repeats or separate records; there may be more than shown.
Target: Myosin light chain kinase, smooth muscle (MYLK, Homo sapiens, UniProt Q15746)

SMILES | test | system | conditions | scale | quantity | value
N[C@H]1CC[C@H](Nc2nccc(-c3cccnc3Oc3ccc(NC(=O)NC4CC4)c4ccccc34)n2)CC1 | kinobead competition pulldown | HEK293/HCT116 lysate mixture | 10 µM, 1 h, 4 °C | lower = stronger competition | log2 LFQ intensity | 20.7 and 20.9 and 19.6
Cc1cccc(-c2ccc3nc(NC(=O)C4CCCO4)nn3c2)c1 (stereo not drawn) | enzyme activity, Dundee kinase panel |  | 10 µM |  | remaining activity | 92%
C=CC(=O)N1CCc2ccc(-n3c(=O)ccc4cnc5ccc(-c6cnn(C)c6)cc5c43)cc21 | KINOMEscan |  | 1 µM | baseline: DMSO control | remaining binding | 100%
C=CC(=O)N1CCCC(n2c(=O)c3ncccc3n(Cc3ccc(Oc4ccccc4)cc3)c2=O)C1 (stereo not drawn) | cell-free assay, competition with immobilised ligand |  | 1 µM |  | remaining binding | 100%
CCn1cc(C(=O)O)c(=O)c2c(N)c(F)c(NC3CCCCC3)cc21 | kinase activity |  | 0.1 µM, together with: ATP at Km |  | inhibition | 10.3%
Cc1ccc(-c2c(/C=C(\C#N)C(=O)NC(C)C)n(CCCO)c3ncnc(N)c23)cc1 | cell-free assay, competition with immobilised ligand |  | 1 µM |  | remaining binding | 100%
CC(C)=CC1OC(C)(C)C2C=C3C(=O)C(Cl)=CC(O)C3C3C(O)C4OC4C(=O)C132 (stereo not drawn) | cell-free assay, competition with immobilised ligand |  | 10 µM |  | remaining binding | 97%
Nc1nc(Nc2ccccc2)sc1C(=O)c1ccccc1 | enzyme activity, inhibitor |  | 10 µM |  | remaining activity | 22%
C=CC(=O)N1Cc2nc(-c3cc(-c4cc(Cl)cnc4Cl)c(F)cc3F)n(-c3ccncn3)c2C1 | cell-free assay, inhibitor |  | 1 µM |  | inhibition | -1.8%
COc1cc(Nc2nccc(-c3cnn4nc(OC)ccc34)n2)cc(C(F)(F)F)c1 | binding, competition with immobilised ligand |  | 1 µM |  | remaining binding | 97%
C=CC(=O)Nc1cc(-c2nn(C3CCN(CCNC(=O)[C@H](C)CCC45CC6CC(CC(C6)C4)C5)CC3)c3ncnc(N)c23)ccc1Oc1ccccc1 | inhibitor, KiNativ profiling | biochemical | 2 µM |  | inhibition | -15.2%
CNC(=O)C[C@H](Cc1ccc(C#N)cc1)NC(=O)c1cc(-c2ccc(CN[C@H](C)c3ccc(C)cc3)o2)ccc1Cl | enzyme activity, inhibitor |  | 1 µM |  | activity vs control | 98%
O=C(Cc1ccc(OCc2ccccc2)cc1)NC1(C(=O)O)CCN(C(=O)c2ccc(-c3cccc(Cl)c3)cc2)CC1 | enzyme activity, inhibitor |  | 10 µM |  | activity vs control | 93%
NC(=O)[C@@H](O)C[C@H]1CCc2sc3ncnc(O[C@H]4CC[C@H](N5CCOCC5)CC4)c3c21 | enzyme activity, inhibitor |  | 10 µM |  | inhibition | 4%
Cc1cccc(-c2ccc3nc(NC(=O)C4CCOCC4)nn3c2)c1 | enzyme activity, Dundee kinase panel |  | 10 µM |  | remaining activity | 88%

A few entries again:
SMILES | test | system | conditions | scale | quantity | value
CNC(=O)C[C@H](Cc1ccc(C#N)cc1)NC(=O)c1cc(-c2ccc(CN[C@H](C)c3ccc(C)cc3)o2)ccc1Cl | enzyme activity, inhibitor |  | 1 µM |  | activity vs control | 98%
O=C(Cc1ccc(OCc2ccccc2)cc1)NC1(C(=O)O)CCN(C(=O)c2ccc(-c3cccc(Cl)c3)cc2)CC1 | enzyme activity, inhibitor |  | 10 µM |  | activity vs control | 93%
